Measured values pooled from the literature.
Each numbered part is a random draw from the data of one study; scales do not carry over between parts.

Set 1
Target: RING finger protein unkempt homolog, zinc fingers 1-6, GST-SBP tag (UNK, Homo sapiens, UniProt Q9C0B0, residues 30-357)
UniProt Q9C0B0, sequence (30-357, looked up): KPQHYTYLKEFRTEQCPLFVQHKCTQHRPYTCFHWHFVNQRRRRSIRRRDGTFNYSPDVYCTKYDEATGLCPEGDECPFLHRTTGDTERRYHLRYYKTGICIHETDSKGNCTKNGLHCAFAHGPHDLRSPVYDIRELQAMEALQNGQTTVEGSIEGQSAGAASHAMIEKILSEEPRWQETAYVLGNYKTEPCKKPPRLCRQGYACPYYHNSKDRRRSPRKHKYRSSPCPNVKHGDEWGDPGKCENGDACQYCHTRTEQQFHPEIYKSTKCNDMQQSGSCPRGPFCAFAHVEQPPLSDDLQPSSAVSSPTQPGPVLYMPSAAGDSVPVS
Method: RNA Bind-n-Seq
Form: RNA
Matrix: in vitro
Concentration: not given
Notes: RNA with constant flanks, human and mouse sites, ends assumed
Reference: input RNA pool
Direction: higher = stronger binding
`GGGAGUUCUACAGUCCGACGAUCUAAAAUUGGGGGUGGGGGGAGGGUUGACAUUUUCCGACUGCCUGUUACGUGCCAAGUGCUUUUUGUUAAGGACAUAAUGUUUUUGACUGGGGAUCAUGUUUGGCUGAUGUAAAUAUUAAUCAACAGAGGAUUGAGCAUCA` gave a bound/input enrichment of 0.285 ratio.
The bound/input enrichment of `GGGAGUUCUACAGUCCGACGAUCGUACUGUCUCUUUUGGAAAAGUUCUUGAUCCCCAAUGCUUCACAAGCAGAGAGCAAAGUCUUCUAUUUGAAAAUGAAAGGAGAUUACUACCGUUACUUGGCUGAGGUUGCCGCUGGUGAUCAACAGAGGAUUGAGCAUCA` is reported as 0.119 ratio.
For `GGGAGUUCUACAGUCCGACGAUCCGCUCGCUGGCCUUUAGGAAGGAGCUGCAGGAUGGGGGCCUCCGAAGCAGCGGCUUCUUCAGCUCCUUCGAGGAGAGCGACAUUGAGAACCACCUCAUUAGCGGACACAAUAUUGUGCAGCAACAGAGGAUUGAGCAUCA`, the bound/input enrichment was 0.23 ratio.
The bound/input enrichment of `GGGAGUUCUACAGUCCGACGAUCGGGGAACGGGGCUUCGCGGUUCCAACGAUUAAGUUCUGAAGUACUGAUCGAGUUCUGCGUUUCUUCAAUGAGGAACUACAGGCUGAUCUUCUGCCAUAAUCUCAAACAGCCAUAAAUGACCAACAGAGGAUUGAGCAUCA` is reported as 0.119 ratio.
`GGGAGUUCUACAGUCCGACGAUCGAUGCAGUUAAGGAAGAAAAUCUGAAGCUAAAAUCAGAAAACCAAGUUCUUGGACAAUAUAUAGAAAAUCUCAUGUCAGCUUCUAGUGUUUUUCAAACAACUGACACAAAAAGCAAAAGACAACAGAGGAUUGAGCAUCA` has a bound/input enrichment of 0.313 ratio.
`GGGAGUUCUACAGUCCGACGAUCUUUCCUGGGAACAGCACCCAGUACAACAUCCUGGAAGGGUUGGAAAAGCUCAAACAUCUAGACUUUCUGAAGCAGCCACUGGCCACCCAAAAGGAUCUCACUGGCCAGGUGCCCACUCCUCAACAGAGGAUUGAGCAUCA` has a bound/input enrichment of 0.244 ratio.

Set 2
Target: Prothrombin, mature alpha-thrombin (F2, Homo sapiens, UniProt P00734)
Method: aptamer microarray, sandwich
Form: DNA with 2'F-ANA
Matrix: in vitro
Concentration: 200 nM
Notes: whole 15-mer aptamer, many near background
With: Cy3 exosite-II aptamer, 400 nM
Direction: higher = stronger binding
Strand: GGTTGGTGTGGTTGG
Under “mean fluorescence intensity”, `2'F-ANA at 1 3 4 13` is recorded as 146 a.u.
Under “mean fluorescence intensity”, `2'F-ANA at 1 5 7 11 14 15` is recorded as 70.2 a.u.
`2'F-ANA at 1 7 8 13 14` — result for “mean fluorescence intensity”: 64.5 a.u.
For `2'F-ANA at 1 3 5 6 7 10 11 13`, “mean fluorescence intensity” read 60.5 a.u.
`2'F-ANA at 5 6 7 8 11 14`: “mean fluorescence intensity” 183 a.u.

Set 3
Target: Interferon regulatory factor 5, full length, phosphomimetic (IRF5, Homo sapiens, UniProt Q13568-2, residues 1-514, K96S/S451D/S453D/S456D/S462D)
Method: protein-binding microarray
Form: double-stranded DNA, one strand shown
Matrix: in vitro
Concentration: 250 nM
Notes: 60-bp whole probe
With: salmon DNA 0.4 mg/ml
Reference: random background probes
Direction: higher = stronger binding
Constant ends, left off below: GCCTAGCAC … GTCTTGATTCGCTTGACGCTGCTG
For `TCATTTTCATTTTTTTTACTGTGCTAG`, the log fluorescence was 3.57 z-score.
For `GACGCTTTCAGACTGGAGACGTGCTAG`, the log fluorescence was 0.76 z-score.
`GACGGACTGGGGTAACGGGACGTGCTA` gave a log fluorescence of -0.719 z-score.
`TCATTTTGTGTTTTCATACTGTGCTAG` has a log fluorescence of 1.45 z-score.
With `TCATGCCTATTTTTCACACTGTGCTAG` the log fluorescence was 0.622 z-score.
`TCACTTTTATTTTTTTTACTGTGCTAG` has a log fluorescence of 1.57 z-score.
`GACGGACTGGGATTGGGGACGTGCTAG` has a log fluorescence of -0.479 z-score.

Other studies, line by line
`PhoQ, residues 284 288 289 292 302 303 SCKMEA` gave a fold induction of 7.43 (PhoP, residues 12 14 15 18 19 STWGI (Escherichia coli, UniProt P23836); Sort-seq, item: YFP reporter; E. coli; PhoQ-PhoP variant library, with: 10 µM Mg2+; reference: high Mg2+ state, higher = stronger signaling).

Excerpt of the above (set 3):
`GACGGACTGGGATTGGGGACGTGCTAG` has a log fluorescence of -0.479 z-score.
